Assay results gathered from unrelated publications.
Compare with care: the assays were run in different laboratories. “And” joins repeats or separate records; there may be more than shown. ± gives the spread as reported.

Compound	assay	test system	conditions	scale	quantity	value
C[C@]1(O)C[C@@](N)(c2ccc(-c3nc4n(c3-c3ccccc3)COc3ccncc3-4)cc2)C1	–	human, advanced or metastatic solid tumours	16 mg once daily, dose-response cohort	–	patients with Hyperglycemia TEAE	0%
CC(C)C[C@H](NC(=O)[C@H](CCCCN)NC(=O)OCC1c2ccccc2-c2ccccc21)C(=O)N[C@H](C(=O)N[C@@H](Cc1ccccc1)C(=O)N[C@@H](Cc1ccccc1)C(=O)N[C@@H](CCCCN)C(=O)NCC(=O)N[C@@H](Cc1ccccc1)C(=O)N[C@@H](C)C(=O)N[C@@H](Cc1c[nH]c2ccccc12)C(=O)N[C@@H](CC(N)=O)C(=O)N[C@H](C(=O)N[C@H]1CSSC[C@@H](C(=O)N[C@@H](Cc2c[nH]cn2)C(=O)N[C@@H](CCCNC(=N)N)C(=O)N[C@@H](CCCNC(=N)N)C(=O)N[C@@H](C)C(=O)N[C@@H](CC(N)=O)C(N)=O)NC(=O)[C@H](C(C)C)NC(=O)[C@H](CCCNC(=N)N)NC(=O)[C@H](C(C)C)NC(=O)CNC(=O)[C@H](CC(N)=O)NC(=O)[C@H](CCCNC(=N)N)NC(=O)[C@H](Cc2ccc(O)cc2)NC(=O)[C@H](C(C)C)NC1=O)C(C)C)C(C)C	–	ICR mouse, blood	intramammary, 10 mg/kg, day 5, 3 d dosing	–	AST	28.5 ± 1.17 IU/L
CCc1ccc(CC/C=C/c2ccc3c(c2)C(=O)CC3)cc1	–	Sprague-Dawley rat, male	oral, 120 mg/kg/day, 14 days	–	AST serum activity	137 U/L
C=CCNc1c(O)cc2c(O)c1C[C@@H](C)C[C@H](OC)[C@H](O)[C@@H](C)/C=C(\C)[C@H](OC(N)=O)[C@@H](OC)/C=C\C=C(/C)C(=O)N2	item: first-degree AV block	patients with unresectable or metastatic GIST, STS or other tumours	intravenous, 300 mg/m^2	–	treatment-emergent adverse events	33%
COc1ccc(-c2c(-c3ccc(C#N)c(F)c3)nc(N3CCC(N)CC3)n(C)c2=O)cc1F	item: Leukopenia	human patients	oral, dose not given, any grade, dose escalation, NG	–	treatment-related adverse event incidence	0%
CCCCCCCCCCCCCCCC(=O)N[C@@H](CCC(=O)NCCCC[C@H](NC(=O)[C@H](CC(=O)O)NC(=O)[C@H](CO)NC(=O)[C@@H](NC(=O)[C@H](Cc1ccccc1)NC(=O)[C@@H](NC(=O)CNC(=O)[C@H](CCC(N)=O)NC(=O)[C@H](CO)NC(=O)[C@@H](N)Cc1c[nH]cn1)[C@@H](C)O)[C@@H](C)O)C(=O)N[C@@H](CO)C(=O)N[C@@H](CCC(=O)O)C(=O)N[C@@H](Cc1ccc(O)cc1)C(=O)N[C@@H](CC(C)C)C(=O)N[C@@H](CC(=O)O)C(=O)N[C@@H](CO)C(=O)N[C@@H](CCC(=O)O)C(=O)N[C@@H](CCCNC(=N)N)C(=O)N[C@@H](C)C(=O)N[C@@H](CCCNC(=N)N)C(=O)N[C@@H](CC(=O)O)C(=O)N[C@@H](Cc1ccccc1)C(=O)N[C@H](C(=O)N[C@@H](C)C(=O)N[C@@H](Cc1c[nH]c2ccccc12)C(=O)N[C@@H](CC(C)C)C(=O)N[C@@H](CCC(=O)O)C(=O)N[C@@H](C)C(=O)NCC(=O)NCC(=O)O)C(C)C)C(=O)O	item: Diarrhoea	humans CrCl 45 to 60 mL/min	subcutaneous, 100 µg single dose	–	treatment-related adverse events	0%
C[C@@H](NC(=O)N1C(=O)[C@H](Cc2ccnc(N)c2)[C@H]1C(=O)O)C1CCCCC1	–	healthy adult Chinese volunteers	continuous intravenous infusion, 0.6 mg/kg/h, 5-day infusion, CTCAE 5.0 grading	–	drug-related decreased neutrophil	0%
O[C@H]1CCCN[C@@H]1CCCn1cnc2c(Cl)c(Cl)ccc21	–	healthy human	oral, 150 mg twice daily	relative to: single dose	accumulation index	2.33
CO[C@H]1C[C@@H]2CC[C@@H](C)[C@@](O)(O2)C(=O)C(=O)N2CCCC[C@H]2C(=O)O[C@H]([C@H](C)C[C@@H]2CC[C@@H](OC(=O)NCCOCCOCCOCCOCCOCCOCCOCCOCCC(=O)N3CCc4cc(Cn5nc(-c6ccc7oc(N)nc7c6)c6c(N)ncnc65)ccc4C3)[C@H](OC)C2)C[C@@H](O)[C@H](C)/C=C(\C)[C@@H](O)[C@@H](OC)C(=O)[C@H](C)C[C@H](C)/C=C/C=C/C=C/1C	dose-escalation trial	patients with advanced solid tumours	intravenous, all doses weekly, any grade	–	decreased appetite TEAE incidence	35%
CC(C)c1nc(N(C)S(C)(=O)=O)nc(-c2ccc(F)cc2)c1/C=C/[C@@H](O)C[C@@H](O)CC(=O)O	–	healthy human subjects	oral, dose not given, study CL-0537 safety set	–	incidence musculoskeletal disorders	0%
CC[C@H](C)CCCCC(=O)N[C@@H](CCN)C(=O)N[C@H](C(=O)N[C@@H](CCN)C(=O)N[C@H]1CCNC(=O)[C@H]([C@@H](C)O)NC(=O)[C@H](CCN)NC(=O)[C@H](CCN)NC(=O)[C@H](CC(C)C)NC(=O)[C@@H](Cc2ccccc2)NC(=O)[C@H](CCN)NC1=O)[C@@H](C)O	–	critically ill patients, non-AKI, plasma	intravenous, 150 mg/day, 6 h, median	–	concentration at steady state	3100 ng/mL
CCN1[C@@H](C(=O)NC23CCC(C(=O)O)(CC2)CC3)[C@H](c2cccc(Cl)c2F)[C@]2(C(=O)Nc3cc(Cl)ccc32)C12CCCCC2	–	patients with advanced solid tumours	oral, 200 mg	–	Hypercholesterolemia incidence	0%
C[C@@H]1NC(=O)[C@H](CCCCNC(=O)CO/N=C/C(=O)NCCCC[C@@H]2NC(=O)[C@@H](Cc3ccccc3)NC(=O)[C@H](CC(=O)O)NC(=O)CNC(=O)[C@H](CCCNC(=N)N)NC2=O)NC(=O)CNC(=O)[C@@H]2CCCN2C(=O)[C@H](CCCCNC(=O)CO/N=C/C(=O)NCCCC[C@@H]2NC(=O)[C@@H](Cc3ccccc3)NC(=O)[C@H](CC(=O)O)NC(=O)CNC(=O)[C@H](CCCNC(=N)N)NC2=O)NC(=O)[C@H](CCCCNC(=O)CN2CCCNCCNCCCNCC2)NC(=O)[C@H](CCCCNC(=O)CO/N=C/C(=O)NCCCC[C@@H]2NC(=O)[C@@H](Cc3ccccc3)NC(=O)[C@H](CC(=O)O)NC(=O)CNC(=O)[C@H](CCCNC(=N)N)NC2=O)NC(=O)CNC(=O)[C@@H]2CCCN2C(=O)[C@H](CCCCNC(=O)CO/N=C/C(=O)NCCCC[C@@H]2NC(=O)[C@@H](Cc3ccccc3)NC(=O)[C@H](CC(=O)O)NC(=O)CNC(=O)[C@H](CCCNC(=N)N)NC2=O)NC1=O [copper-64 labelled]	–	normal mice, liver	intravenous, 0.74 MBq, 3 h post-injection	–	tissue uptake	6.86 ± 0.34 %ID/g
COc1ccc(C[C@@H]2NC(=O)[C@H]([C@@H](C)O)NC(=O)[C@@H]3[C@@H]4CCN3C(=O)[C@@H]3Cc5cn(c6ccc(F)cc56)CCCCCCN(Cc5ccc(cc5)CCNC(=O)[C@]5(C)CCCN5C2=O)C(=O)CCC(=O)N[C@@H](C)C(=O)N[C@H](CNC(=O)CCCCC[N+](C)(C)C)C(=O)N[C@@H](Cc2cccc(c2)CNC(=O)CO4)C(=O)N3)cc1	item: Toothache	humans	concentration not given, Study-001	–	participants with adverse event	2%
O=C(Nc1ccccc1)C1CCN(C(=O)Oc2cccnc2)CC1	adverse event reporting	healthy women	oral, 60 mg	–	subjects with Phlebitis adverse event	7.1%
C[C@@H](c1nc(-c2ccc(C#N)cc2)cs1)[C@](O)(Cn1cncn1)c1cc(F)ccc1F	item: blood creatinine increased	humans	oral, dose not given, together with: midazolam	–	subjects with TEAEs	8.7%
O=S(=O)(Nc1ccccc1)c1ccc(NC(=S)Nc2ccccc2)cc1	–	female mice, small intestine	oral, 80 mg/kg daily 14 days	relative to: body weight	relative organ weight	3.06%
CC1(C)C(=O)N(c2ccc(C#N)c(C(F)(F)F)c2)C(=S)N1c1ccc(C(N)=O)c(F)c1	population PK base model	human	dose not given	–	central volume of distribution	46.8 L
COc1ccc(Cc2nccc3cc(C4COC4)ccc23)cc1OC	–	C57BL/6 mouse, female	intravenous	–	toxic dose	≤ 2 mg/kg
O=[N+]([O-])NC1=NCCN1Cc1ccc(Cl)nc1	–	cow whole milk	2000 nM	relative to: milk fat over skim milk	milk fat partition ratio	0.52
COc1ncnn2ccc(-c3cnc4nc(C)n(Cc5nnc([C@@H](C)F)o5)c4c3)c12	–	human	oral, dose not given, grade 5	–	patients with dehydration	0%
COc1cc2c(Oc3ccc4[nH]c(C)cc4c3F)ccnc2cc1OCC1(N)CC1	–	paediatric recurrent refractory sarcoma	10 mg	–	Anorexia incidence	0%
O=C(O)CCCOc1ccc(F)cc1-c1cc(-c2ccccc2C(F)(F)F)n(-c2ccccc2)n1	–	Crl:CD(SD) rats, female, blood	25 µg/kg, 14 days	–	mean corpuscular haemoglobin concentration	36 g/dL and 36.4 g/dL and 36.1 g/dL
CC(C)CC(=O)OC[C@H]1O[C@@](C#N)(c2ccc3c(N)ncnn23)[C@H](O)[C@@H]1O	–	Sprague-Dawley rat, bone marrow	oral, two days twice daily	–	micronucleus test	negative
CC(C)n1c(C2CCNCC2)nc2c([N+](=O)[O-])c(Br)c(Br)cc21	item: Thrombocytopenia	AML patients	125 mg	–	adverse events any grade	30.9%
CC(=O)c1c(C)c2cnc(Nc3ccc(C4CCN(CCS(C)(=O)=O)CC4)cn3)nc2n(C2CCCC2)c1=O	–	HR+/HER2- advanced breast cancer patients	oral, 300 mg	–	patients with serious AE	25%
Cc1cc(C)c(CNC(=O)c2cc(Cl)c3c(c2C)O[C@@](C)([C@H]2CC[C@H](N(C)C)CC2)O3)c(=O)[nH]1	–	human, relapsed/refractory NHL	concentration not given, treatment-related TEAEs, grade 5	–	Hypotension incidence	0%
C[C@]1(CO)Cc2ncn(-c3ccc(C#N)c(Cl)c3)c2C(=O)O1	–	healthy Japanese adults, plasma	20 mg single dose	–	half-life	5.9 h

For quick reference, copied from above:
Compound	assay	test system	conditions	scale	quantity	value
C=CCNc1c(O)cc2c(O)c1C[C@@H](C)C[C@H](OC)[C@H](O)[C@@H](C)/C=C(\C)[C@H](OC(N)=O)[C@@H](OC)/C=C\C=C(/C)C(=O)N2	item: first-degree AV block	patients with unresectable or metastatic GIST, STS or other tumours	intravenous, 300 mg/m^2	–	treatment-emergent adverse events	33%
COc1ccc(-c2c(-c3ccc(C#N)c(F)c3)nc(N3CCC(N)CC3)n(C)c2=O)cc1F	item: Leukopenia	human patients	oral, dose not given, any grade, dose escalation, NG	–	treatment-related adverse event incidence	0%
CCCCCCCCCCCCCCCC(=O)N[C@@H](CCC(=O)NCCCC[C@H](NC(=O)[C@H](CC(=O)O)NC(=O)[C@H](CO)NC(=O)[C@@H](NC(=O)[C@H](Cc1ccccc1)NC(=O)[C@@H](NC(=O)CNC(=O)[C@H](CCC(N)=O)NC(=O)[C@H](CO)NC(=O)[C@@H](N)Cc1c[nH]cn1)[C@@H](C)O)[C@@H](C)O)C(=O)N[C@@H](CO)C(=O)N[C@@H](CCC(=O)O)C(=O)N[C@@H](Cc1ccc(O)cc1)C(=O)N[C@@H](CC(C)C)C(=O)N[C@@H](CC(=O)O)C(=O)N[C@@H](CO)C(=O)N[C@@H](CCC(=O)O)C(=O)N[C@@H](CCCNC(=N)N)C(=O)N[C@@H](C)C(=O)N[C@@H](CCCNC(=N)N)C(=O)N[C@@H](CC(=O)O)C(=O)N[C@@H](Cc1ccccc1)C(=O)N[C@H](C(=O)N[C@@H](C)C(=O)N[C@@H](Cc1c[nH]c2ccccc12)C(=O)N[C@@H](CC(C)C)C(=O)N[C@@H](CCC(=O)O)C(=O)N[C@@H](C)C(=O)NCC(=O)NCC(=O)O)C(C)C)C(=O)O	item: Diarrhoea	humans CrCl 45 to 60 mL/min	subcutaneous, 100 µg single dose	–	treatment-related adverse events	0%
C[C@@H](NC(=O)N1C(=O)[C@H](Cc2ccnc(N)c2)[C@H]1C(=O)O)C1CCCCC1	–	healthy adult Chinese volunteers	continuous intravenous infusion, 0.6 mg/kg/h, 5-day infusion, CTCAE 5.0 grading	–	drug-related decreased neutrophil	0%
